Assay results collected from several papers.
Each line is one published result; not all experiments were run side by side. “And” joins repeats or separate records; there may be more than shown. ± gives the spread as reported.

Compound	target	assay	system	setting	how to read	endpoint	result
CCN(CC)CCNC(=O)c1c(C)[nH]c(/C=C2\C(=O)Nc3ccc(F)cc32)c1C	JNK1α1 (human)	kinase activity, inhibitor		10 µM		inhibition	-1%
C#CCOc1cc(C(=O)Nc2cc(OCCCN)c3ccccc3n2)nc(C(=O)Nc2cc(OCCCN)c3ccccc3n2)c1	K-ras G-quadruplex DNA	FRET melting		1 µM, pH 7.4, added: 60 mM potassium		ΔTm	4.7 ± 0.3 K
COc1ccc(-c2coc3cc(OC)ccc3c2=O)cc1	MyBP-C and MYH		iPSC-derived cardiomyocytes (human)	concentration not given	relative to: plate controls (SD units)	MyBP-C/MYH ratio	-3.1
Cc1ccc(C(=O)Nc2ccc3ccccc3c2)o1	Kv2.1 potassium channel	ion current, inhibitor, whole-cell patch clamp		10 µM		inhibition	14.1% and 25% and 23.7% and 17.3% and 19.8%
Oc1ccccc1-c1n[nH]cc1-c1ccnc2ccccc12	CMK2 (Candida albicans)	kinase binding, MIB/MS competition	Candida albicans lysate	10 µM	relative to: DMSO	log2 fold change	-0.82
CC(=O)NCCCC[C@H](NC(=O)CNC(=O)[C@H](CCCNC(=N)N)NC(C)=O)C(=O)Nc1ccc2c(C)cc(=O)oc2c1	human Y386F/Y782F mutant enzyme	substrate, fluorogenic				kcat	0.0004 ± 0.0002 s⁻¹
O=S(=O)(NCCNC/C=C/c1ccc(Br)cc1)c1cccc2cnccc12	PKA	inhibitor	mouse zygotes	20 µM, injection, hCG, 24 h post, early embryonic development		embryos at morula stage	0%
CNC(=O)[C@@H]1CC[C@@H](n2c(-c3ccc4cnccc4c3)nc3ccc(C(=O)NCc4cccc(C(N)=O)c4)cc32)C1	human FLT3 ITD	binding, KINOMEscan		1000 nM	lower = stronger binding	percent of control	88%
CNc1cc(Oc2cc(C(=O)Nc3cc(N4CCN(C)CC4)cc(C(F)(F)F)c3)ccc2C)ncn1	MAP3K2/MAP3K3 (human)	kinase probe binding, inhibitor, KiNativ	Huh-7	1 µM		inhibition	-42.2%
NCCCOc1cc(NC(=O)c2cc(Cl)cc(C(=O)Nc3cc(OCCCN)c4ccccc4n3)n2)nc2ccccc12	K-ras G-quadruplex DNA	FRET melting		1 µM, pH 7.4, added: 60 mM potassium		ΔTm	15.1 ± 0.9 K
c1coc(-c2n[nH]cc2-c2ccnc3ccccc23)c1	KIC1 (Candida albicans)	kinase binding, MIB/MS competition	Candida albicans lysate	10 µM	relative to: DMSO	log2 fold change	-0.12
C/C=C(/C)C(=O)OC[C@H]1[C@@H](Cc2ccc(F)cc2)CO[C@@H]1c1ccc(F)cc1	NF-κB	reporter gene	HEK293/NF-κB-luc	4 h, added: TNFα 2 ng/mL		IC50	≥ 20 µM
CC[C@@H]1[C@H](F)C(=O)N[C@@H]1COc1nccc2cc(C(N)=O)c(OC)cc12	CK1 delta and epsilon	ATP-site probe binding, inhibitor, ActivX ATP probe profiling	THP-1 cell lysate	0.01 mM, probe site Lys2		inhibition	-6.6%
NCCCOc1cc(NC(=O)c2cc(OCc3c[nH]nn3)cc(C(=O)Nc3cc(OCCCN)c4ccccc4n3)n2)nc2ccccc12	K-ras G-quadruplex DNA	FRET melting		1 µM, pH 7.4, added: 60 mM potassium		ΔTm	5.9 ± 0.5 K
COc1ccc(C[C@H]2CO[C@H](c3ccc(OC)c(OC)c3)[C@H]2COC(=O)C=C(C)C)cc1OC	NF-κB	reporter gene	HEK293/NF-κB-luc	4 h, added: TNFα 2 ng/mL		IC50	5.3 µM
CC(Nc1nc(N2CCCC2)nc2ccccc12)c1ccccc1 (centres unmarked)	transportin-1/2	FUS nuclear import, high content imaging	HeLa Kyoto reporter	0.5 µM, 2 h		cells with nuclear reporter	94.2%
CC(=O)ON=C1C=CC(=C(C#N)c2ccccc2)C=C1	Leishmania donovani TLK	enzyme activity, inhibitor, ADP-Glo		2 µM, about MIC/10, added: ATP 10 µM		remaining activity	101%
O=C(C#Cc1cn(Cc2ccccc2)c(=O)[nH]c1=O)NCc1ccccc1	MMP-2	inhibitor, colorimetric		20 µM		remaining MMP-2 activity	101 ± 4%
NCCOc1cc(NC(=O)c2cc(OCc3ccc(F)cc3)cc(C(=O)Nc3cc(OCCN)c4ccccc4n3)n2)nc2ccccc12	K-ras G-quadruplex DNA	FRET melting		1 µM, pH 7.4, added: 60 mM potassium		ΔTm	10.7 ± 0.5 K
CC(C)N=C(N)c1ccc2nc(-c3ccc(OCc4cccc(COc5ccc(-c6nc7ccc(C(N)=NC(C)C)cc7[nH]6)cc5)c4F)cc3)[nH]c2c1	PU.1 (mouse)	reporter gene, inhibitor, luciferase reporter	BV-2 cells PU.1-luciferase	concentration not given	relative to: DMSO	remaining activity	88 ± 22%
O=C(Nc1cc(OCCN2CCCC2)c2ccccc2n1)c1cc(Cl)cc(C(=O)Nc2cc(OCCN3CCCC3)c3ccccc3n2)n1	K-ras G-quadruplex DNA	FRET melting		1 µM, pH 7.4, added: 60 mM potassium		ΔTm	12.2 ± 0.6 K
Cc1ncsc1-c1ccc([C@H](C)NC(=O)[C@@H]2C[C@@H](O)CN2C(=O)[C@@H](NC(=O)COCCOCCOCCOCCOCC(=O)N2CC(Nc3cc(C(=O)NC[C@H](O)CN4CCc5ccccc5C4)ncn3)C2)C(C)(C)C)cc1	human MEP50	degrader, Western blot	MDA-MB-468	72 h		Dmax	~50%
CCNC(=O)/C=C/c1cccc(Br)c1	endogenous neutral amino acid transporters, Chinese hamster	radioactive uptake	CHO-BC cells	1 µM, added: 150 µM L-[14C]leucine, Na+		L-leucine uptake	43.5 nmol/6 min/mg protein and 44.7 nmol/6 min/mg protein and 46.2 nmol/6 min/mg protein
CSCC[C@@H]1NC(=O)[C@H](C)NC(=O)[C@H](CCC(N)=O)NC(=O)[C@H](CCCNC(=N)N)NC(=O)[C@H](Cc2c[nH]c3ccccc23)NC(=O)CNC(=O)[C@H](CCSC)NC(=O)[C@@H]2CCCN2C(=O)[C@H](C)NC(=O)[C@@H](NC(=O)CN)CSSC[C@@H]2NC(=O)CNC(=O)[C@H](C)NC(=O)[C@H](CC(C)C)NC(=O)[C@@H]3CSSC[C@@H](C(=O)NCC(=O)O)NC(=O)[C@H](Cc4ccccc4)NC(=O)CNC(=O)[C@H](CC(N)=O)NC(=O)[C@@H]4CCCN4C(=O)CNC(=O)[C@H](CSSC[C@H](NC(=O)[C@H](CCCNC(=N)N)NC1=O)C(=O)N[C@@H](CCCCN)C(=O)N[C@@H](CCC(N)=O)C(=O)N[C@@H](CC(=O)O)C(=O)N[C@@H](CO)C(=O)N[C@@H](CC(=O)O)C(=O)N3)NC(=O)[C@H](C(C)C)NC2=O	classical complement pathway	inhibitor, ELISA, measured: C5b-9		concentration not given, saturating concentration		inhibition	~75%
CN(C)CCCOc1cc(NC(=O)c2cccc(C(=O)Nc3cc(OCCCN(C)C)c4ccccc4n3)n2)nc2ccccc12	K-ras G-quadruplex DNA	FRET melting		1 µM, pH 7.4, added: 60 mM potassium		ΔTm	16.7 ± 0.4 K
COc1ccc(F)cc1C(=O)NCc1ccc(-c2nn([C@@H](C)C(F)(F)F)c(N)c2C(N)=O)cc1	MEK1/MEK2 human	probe binding, competitive chemoproteomics	human PBMCs	1 µM		inhibition	11.4%
O=C(Nc1c[nH]nc1C(=O)NC1CCNCC1)c1cc(F)cc(F)c1	human FLT3 ITD	scanMAX		1 µM	relative to: control	remaining binding	92%
CNC(=O)c1cc(Oc2ccc(NC(=O)Nc3ccc(Cl)c(C(F)(F)F)c3)cc2)ccn1	JNK1α1 (human)	kinase activity, inhibitor		10 µM		inhibition	7%
C[C@H]1CCN(c2nccc(-c3cnn4ncccc34)n2)C1	human kinases, wild type	binding, KINOMEscan panel		concentration not given		percent of control	62% and 75% and 84%

A few entries again:
Compound	target	assay	system	setting	how to read	endpoint	result
CC(C)N=C(N)c1ccc2nc(-c3ccc(OCc4cccc(COc5ccc(-c6nc7ccc(C(N)=NC(C)C)cc7[nH]6)cc5)c4F)cc3)[nH]c2c1	PU.1 (mouse)	reporter gene, inhibitor, luciferase reporter	BV-2 cells PU.1-luciferase	concentration not given	relative to: DMSO	remaining activity	88 ± 22%
CN(C)CCCOc1cc(NC(=O)c2cccc(C(=O)Nc3cc(OCCCN(C)C)c4ccccc4n3)n2)nc2ccccc12	K-ras G-quadruplex DNA	FRET melting		1 µM, pH 7.4, added: 60 mM potassium		ΔTm	16.7 ± 0.4 K
